{"data": "Assay results from different studies", "CALCR": "Calcitonin receptor (CALCR, Homo sapiens, UniProt P30988)", "UniProt P30988, sequence (whole entry, looked up)": "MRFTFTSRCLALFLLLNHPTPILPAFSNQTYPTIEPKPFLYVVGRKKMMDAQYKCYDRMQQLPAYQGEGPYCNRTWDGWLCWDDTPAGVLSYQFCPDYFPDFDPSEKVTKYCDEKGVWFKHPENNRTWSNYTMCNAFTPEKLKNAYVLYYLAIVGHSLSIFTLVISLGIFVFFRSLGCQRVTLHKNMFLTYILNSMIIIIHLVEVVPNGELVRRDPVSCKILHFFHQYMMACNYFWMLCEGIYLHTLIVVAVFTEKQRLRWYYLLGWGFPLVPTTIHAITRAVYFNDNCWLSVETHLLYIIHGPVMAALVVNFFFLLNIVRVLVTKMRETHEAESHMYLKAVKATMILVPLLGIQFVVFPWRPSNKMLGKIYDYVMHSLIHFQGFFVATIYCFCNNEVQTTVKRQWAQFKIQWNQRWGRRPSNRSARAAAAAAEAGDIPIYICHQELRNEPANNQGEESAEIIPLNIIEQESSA", "UniProt Q9H8M2, sequence (whole entry, looked up)": "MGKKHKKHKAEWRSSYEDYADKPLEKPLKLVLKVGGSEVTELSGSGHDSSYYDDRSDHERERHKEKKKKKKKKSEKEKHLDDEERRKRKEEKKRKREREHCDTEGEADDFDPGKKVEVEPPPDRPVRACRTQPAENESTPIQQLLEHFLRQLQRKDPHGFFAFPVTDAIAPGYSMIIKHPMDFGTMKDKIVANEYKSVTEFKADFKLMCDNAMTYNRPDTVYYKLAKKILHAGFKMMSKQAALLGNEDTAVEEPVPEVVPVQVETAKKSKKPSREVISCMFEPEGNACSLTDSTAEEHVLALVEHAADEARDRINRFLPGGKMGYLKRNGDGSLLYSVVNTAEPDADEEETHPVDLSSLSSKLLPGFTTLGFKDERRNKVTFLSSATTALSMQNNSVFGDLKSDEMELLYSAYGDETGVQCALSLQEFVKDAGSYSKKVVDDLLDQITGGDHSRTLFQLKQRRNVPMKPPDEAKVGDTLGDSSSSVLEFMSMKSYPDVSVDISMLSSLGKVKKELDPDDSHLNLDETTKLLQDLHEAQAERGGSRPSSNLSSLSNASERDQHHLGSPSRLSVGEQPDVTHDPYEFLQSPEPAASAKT", "UniProt P40337, sequence (whole entry, looked up)": "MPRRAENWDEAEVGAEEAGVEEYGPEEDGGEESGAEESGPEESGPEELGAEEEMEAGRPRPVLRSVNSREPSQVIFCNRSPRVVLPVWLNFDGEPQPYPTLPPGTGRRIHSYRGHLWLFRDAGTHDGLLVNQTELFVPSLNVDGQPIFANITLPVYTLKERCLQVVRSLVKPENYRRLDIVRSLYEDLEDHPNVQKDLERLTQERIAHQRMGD", "UniProt P61981, sequence (whole entry, looked up)": "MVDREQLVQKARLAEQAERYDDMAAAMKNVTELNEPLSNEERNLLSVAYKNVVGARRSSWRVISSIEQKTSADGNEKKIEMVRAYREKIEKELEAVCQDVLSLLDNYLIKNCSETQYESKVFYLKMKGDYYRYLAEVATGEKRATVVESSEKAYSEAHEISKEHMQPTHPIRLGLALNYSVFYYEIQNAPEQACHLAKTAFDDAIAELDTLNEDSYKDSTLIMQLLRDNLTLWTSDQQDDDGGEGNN", "UniProt Q9H244, sequence (whole entry, looked up)": "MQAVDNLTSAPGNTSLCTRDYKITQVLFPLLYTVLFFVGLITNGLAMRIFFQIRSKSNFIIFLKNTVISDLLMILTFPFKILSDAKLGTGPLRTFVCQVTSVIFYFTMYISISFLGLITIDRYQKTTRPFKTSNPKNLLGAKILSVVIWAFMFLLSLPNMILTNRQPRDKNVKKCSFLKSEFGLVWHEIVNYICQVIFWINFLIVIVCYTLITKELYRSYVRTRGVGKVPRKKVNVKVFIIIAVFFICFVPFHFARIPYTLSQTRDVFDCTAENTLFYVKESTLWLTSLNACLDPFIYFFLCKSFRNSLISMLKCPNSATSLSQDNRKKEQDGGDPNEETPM", "UniProt O75762, sequence (whole entry, unmodified, looked up)": "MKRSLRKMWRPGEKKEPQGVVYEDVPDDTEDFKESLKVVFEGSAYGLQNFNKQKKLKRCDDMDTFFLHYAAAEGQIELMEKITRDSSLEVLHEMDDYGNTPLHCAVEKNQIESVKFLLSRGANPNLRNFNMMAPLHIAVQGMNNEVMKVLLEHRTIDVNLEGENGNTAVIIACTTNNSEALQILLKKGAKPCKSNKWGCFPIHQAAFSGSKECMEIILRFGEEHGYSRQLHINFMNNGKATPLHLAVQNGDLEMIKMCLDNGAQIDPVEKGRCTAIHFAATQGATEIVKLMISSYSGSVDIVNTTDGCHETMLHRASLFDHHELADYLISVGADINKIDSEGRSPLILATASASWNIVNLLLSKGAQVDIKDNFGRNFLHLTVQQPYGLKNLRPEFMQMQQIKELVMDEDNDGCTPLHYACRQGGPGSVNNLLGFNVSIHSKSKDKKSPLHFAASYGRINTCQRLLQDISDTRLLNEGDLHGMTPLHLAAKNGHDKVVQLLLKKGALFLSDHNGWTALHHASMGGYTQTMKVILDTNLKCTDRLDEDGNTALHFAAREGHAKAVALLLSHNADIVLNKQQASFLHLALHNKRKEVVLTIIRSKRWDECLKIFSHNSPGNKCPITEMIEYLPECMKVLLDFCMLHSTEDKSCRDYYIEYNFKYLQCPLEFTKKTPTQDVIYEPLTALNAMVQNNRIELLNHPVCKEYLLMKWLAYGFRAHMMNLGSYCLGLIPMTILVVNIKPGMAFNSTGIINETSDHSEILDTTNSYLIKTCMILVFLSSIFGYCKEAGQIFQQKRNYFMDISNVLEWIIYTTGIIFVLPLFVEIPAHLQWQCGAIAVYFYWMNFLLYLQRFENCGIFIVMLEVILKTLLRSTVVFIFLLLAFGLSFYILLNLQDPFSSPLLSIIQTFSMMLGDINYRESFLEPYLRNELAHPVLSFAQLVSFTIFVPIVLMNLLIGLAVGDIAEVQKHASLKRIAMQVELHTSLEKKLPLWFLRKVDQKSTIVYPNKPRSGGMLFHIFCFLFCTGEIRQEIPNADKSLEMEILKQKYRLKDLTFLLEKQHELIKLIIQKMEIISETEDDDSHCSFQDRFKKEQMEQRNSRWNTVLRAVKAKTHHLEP", "UniProt Q04206, sequence (whole entry, looked up)": "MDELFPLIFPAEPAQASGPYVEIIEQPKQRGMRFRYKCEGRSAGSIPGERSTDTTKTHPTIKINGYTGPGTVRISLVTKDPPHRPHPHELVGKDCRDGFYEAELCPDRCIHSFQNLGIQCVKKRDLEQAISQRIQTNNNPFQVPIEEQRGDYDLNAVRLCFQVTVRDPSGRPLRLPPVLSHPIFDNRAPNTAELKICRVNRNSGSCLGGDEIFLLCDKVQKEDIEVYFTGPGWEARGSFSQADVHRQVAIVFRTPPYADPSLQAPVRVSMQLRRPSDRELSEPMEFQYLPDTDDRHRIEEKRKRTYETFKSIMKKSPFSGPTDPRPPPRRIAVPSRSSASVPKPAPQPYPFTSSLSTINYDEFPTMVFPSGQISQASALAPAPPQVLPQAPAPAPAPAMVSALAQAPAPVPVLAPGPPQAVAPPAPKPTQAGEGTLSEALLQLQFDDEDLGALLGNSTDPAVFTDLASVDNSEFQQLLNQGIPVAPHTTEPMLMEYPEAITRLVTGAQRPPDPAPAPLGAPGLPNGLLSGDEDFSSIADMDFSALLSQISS"}
{"Compound": "CC[C@H](C)[C@@H](C(=O)N[C@@H](CC(C)C)C(=O)N[C@@H](CO)C(=O)N[C@@H](CO)C(=O)N[C@H](C(=O)N[C@@H](CCC(=O)O)C(=O)N[C@H](C(=O)NCC(=O)N[C@@H](CO)C(=O)N[C@@H](CC(N)=O)C(=O)N[C@H](C(=O)N1C[C@H](O)C[C@H]1C(N)=O)[C@@H](C)O)C(C)C)[C@@H](C)O)N(C)C(=O)[C@H](C)NC(=O)CN(C)C(=O)[C@H](Cc1ccccc1)NC(=O)[C@H](CO)NC(=O)[C@H](CO)NC(=O)[C@H](CCCNC(=N)N)NC(=O)[C@H](CCC(N)=O)NC(=O)[C@H](CC(C)C)NC(=O)[C@H](Cc1ccccc1)NC(=O)[C@H](Cc1c[nH]cn1)NC(=O)[C@H](C)NC(=O)[C@H](CC(C)C)NC(=O)[C@H](CCCNC(=N)N)NC(=O)[C@H](CCC(=O)O)NC(=O)[C@@H](NC(=O)[C@H](C)NC(=O)[C@@H]1CCCCCNC(=O)C[C@H](NC(=O)[C@H](CCCNC(=N)N)NC(=O)CC[C@H](NC(=O)CCCCCCCCCCCCCCCCCCC(=O)O)C(=O)O)C(=O)NCC(=O)N[C@@H]([C@@H](C)O)C(=O)N[C@@H](C)C(=O)N[C@@H]([C@@H](C)O)C(=O)N1)[C@@H](C)O", "target": "CALCR", "assay": "cAMP, agonist", "EC50": "0.000219 µM"}
{"Compound": "C#CCN1CCN(c2nc(N3CCN(c4ccc(Cc5cc(CNC(=O)[C@@H]6C[C@@H](O)CN6C(=O)[C@@H](NC(=O)C6(F)CC6)C(C)(C)C)c(O)cc5-c5scnc5C)cc4)CC3)nc(N3CCN(C(=O)C4CC4)C3)n2)CC1=O", "target": "VHL/BRD9 (Homo sapiens, UniProt P40337+Q9H8M2)", "assay": "ternary complex formation, NanoBiT", "test system": "HEK293T", "setting": "2 h, with: MLN4924 2 µM", "EC50": "0.158 µM"}
{"Compound": "O=C(NC[C@@H](Cc1ccc(F)cc1)N1CCC(O)(C(F)(F)F)CC1)C1(c2ccc(Cl)cc2)CCCC1", "target": "Transient receptor potential cation channel subfamily A member 1 (TRPA1, Homo sapiens, UniProt O75762, L881V)", "EC50": "1.1 µM"}
{"Compound": "CC(=O)NCCN(c1nc(NCc2n[nH]c3c2CCCC3)nc(N2CC3C(CCOc4cc(-c5scnc5C)ccc4CNC(=O)[C@@H]4C[C@@H](O)CN4C(=O)[C@@H](NC(=O)C4(F)CC4)C(C)(C)C)C3C2)n1)C(C)C (stereo partly drawn)", "target": "VHL/BRD9, with Elongin B/C (Homo sapiens, UniProt P40337+Q9H8M2)", "assay": "ternary complex formation, AlphaScreen", "setting": "with: 50 nM His-BRD9 and 20 nM biotin-VCB", "EC50": "0.888 µM"}
{"Compound": "O=C(Cc1ccc(OCc2ccccc2)cc1)NC1(C(=O)O)CCN(C(=O)c2ccc(-c3cccc(Cl)c3)cc2)CC1", "target": "P2Y purinoceptor 12 (P2RY12, Homo sapiens, UniProt Q9H244)", "assay": "agonist, GloSensor cAMP", "EC50": "> 10 µM"}
{"Compound": "CC[C@H](C)[C@@H](C(=O)N[C@@H](CC(C)C)C(=O)N[C@@H](CO)C(=O)N[C@@H](CO)C(=O)N[C@H](C(=O)N[C@@H](CC(N)=O)C(=O)N[C@H](C(=O)NCC(=O)N[C@@H](CO)C(=O)N[C@@H](CC(N)=O)C(=O)N[C@H](C(=O)N1CCC[C@H]1C(N)=O)[C@@H](C)O)C(C)C)[C@@H](C)O)N(C)C(=O)[C@H](C)NC(=O)CN(C)C(=O)[C@H](Cc1ccccc1)NC(=O)[C@H](CC(N)=O)NC(=O)[C@H](CC(N)=O)NC(=O)[C@H](CO)NC(=O)[C@H](CO)NC(=O)[C@H](CCCNC(=N)N)NC(=O)[C@H](Cc1c[nH]cn1)NC(=O)[C@H](CC(C)C)NC(=O)[C@H](Cc1ccccc1)NC(=O)[C@H](CCC(=O)O)NC(=O)[C@H](C)NC(=O)[C@H](CC(C)C)NC(=O)[C@H](CCCNC(=N)N)NC(=O)[C@H](CCC(N)=O)NC(=O)[C@@H](NC(=O)[C@H](C)NC(=O)[C@@H]1CSSC[C@H](NC(=O)[C@H](CCCNC(=N)N)NC(=O)CC[C@H](NC(=O)CCCCCCCCCCCCCCCCCCC(=O)O)C(=O)O)C(=O)N[C@@H](CC(N)=O)C(=O)N[C@@H]([C@@H](C)O)C(=O)N[C@@H](C)C(=O)N[C@@H]([C@@H](C)O)C(=O)N1)[C@@H](C)O", "target": "CALCR", "assay": "cAMP, agonist", "EC50": "7.94e-05 µM"}
{"Compound": "COc1cccc(S(=O)(=O)Oc2cc(C=O)ccc2[N+](=O)[O-])c1", "target": "YWHAG/RELA, phospho-Ser45 p65 peptide (Homo sapiens, UniProt P61981+Q04206)", "assay": "ternary complex formation, stabilizer, fluorescence anisotropy", "EC50": "> 1000 µM"}
{"Compound": "CC[C@H](C)[C@@H](C(=O)N[C@@H](CC(C)C)C(=O)N[C@@H](CO)C(=O)N[C@@H](CO)C(=O)N[C@H](C(=O)N[C@@H](CCC(=O)O)C(=O)N[C@H](C(=O)NCC(=O)N[C@@H](CO)C(=O)N[C@@H](CC(N)=O)C(=O)N[C@H](C(=O)N1C[C@H](O)C[C@H]1C(N)=O)[C@@H](C)O)C(C)C)[C@@H](C)O)N(C)C(=O)[C@H](C)NC(=O)CN(C)C(=O)[C@H](Cc1ccccc1)NC(=O)[C@H](CO)NC(=O)[C@H](CO)NC(=O)[C@H](CCCNC(=N)N)NC(=O)[C@H](CCC(N)=O)NC(=O)[C@H](CC(C)C)NC(=O)[C@H](Cc1ccccc1)NC(=O)[C@H](Cc1c[nH]cn1)NC(=O)[C@H](C)NC(=O)[C@H](CC(C)C)NC(=O)[C@H](CCCNC(=N)N)NC(=O)[C@H](CCC(=O)O)NC(=O)[C@@H](NC(=O)[C@H](C)NC(=O)[C@@H]1CCNC(=O)CC[C@H](NC(=O)[C@H](CCCNC(=N)N)NC(=O)CC[C@H](NC(=O)CCCCCCCCCCCCCCCCCCC(=O)O)C(=O)O)C(=O)NCC(=O)N[C@@H]([C@@H](C)O)C(=O)N[C@@H](C)C(=O)N[C@@H]([C@@H](C)O)C(=O)N1)[C@@H](C)O", "target": "CALCR", "assay": "cAMP, agonist", "EC50": "0.00692 µM"}
{"Compound": "Cn1c(=O)c(C(N)=O)c(N2CCC(Oc3ccc(OC(F)(F)F)cc3)CC2)c2ccccc21", "target": "Diacylglycerol kinase zeta (DGKZ, Homo sapiens, UniProt Q13574)", "assay": "DGKζ-YFP translocation, high-content imaging", "test system": "Jurkat", "EC50": "> 3 µM"}
{"note": "A few entries again:"}
{"Compound": "CC[C@H](C)[C@@H](C(=O)N[C@@H](CC(C)C)C(=O)N[C@@H](CO)C(=O)N[C@@H](CO)C(=O)N[C@H](C(=O)N[C@@H](CCC(=O)O)C(=O)N[C@H](C(=O)NCC(=O)N[C@@H](CO)C(=O)N[C@@H](CC(N)=O)C(=O)N[C@H](C(=O)N1C[C@H](O)C[C@H]1C(N)=O)[C@@H](C)O)C(C)C)[C@@H](C)O)N(C)C(=O)[C@H](C)NC(=O)CN(C)C(=O)[C@H](Cc1ccccc1)NC(=O)[C@H](CO)NC(=O)[C@H](CO)NC(=O)[C@H](CCCNC(=N)N)NC(=O)[C@H](CCC(N)=O)NC(=O)[C@H](CC(C)C)NC(=O)[C@H](Cc1ccccc1)NC(=O)[C@H](Cc1c[nH]cn1)NC(=O)[C@H](C)NC(=O)[C@H](CC(C)C)NC(=O)[C@H](CCCNC(=N)N)NC(=O)[C@H](CCC(=O)O)NC(=O)[C@@H](NC(=O)[C@H](C)NC(=O)[C@@H]1CCCCCNC(=O)C[C@H](NC(=O)[C@H](CCCNC(=N)N)NC(=O)CC[C@H](NC(=O)CCCCCCCCCCCCCCCCCCC(=O)O)C(=O)O)C(=O)NCC(=O)N[C@@H]([C@@H](C)O)C(=O)N[C@@H](C)C(=O)N[C@@H]([C@@H](C)O)C(=O)N1)[C@@H](C)O", "target": "CALCR", "assay": "cAMP, agonist", "EC50": "0.000219 µM"}
{"Compound": "C#CCN1CCN(c2nc(N3CCN(c4ccc(Cc5cc(CNC(=O)[C@@H]6C[C@@H](O)CN6C(=O)[C@@H](NC(=O)C6(F)CC6)C(C)(C)C)c(O)cc5-c5scnc5C)cc4)CC3)nc(N3CCN(C(=O)C4CC4)C3)n2)CC1=O", "target": "VHL/BRD9 (Homo sapiens, UniProt P40337+Q9H8M2)", "assay": "ternary complex formation, NanoBiT", "test system": "HEK293T", "setting": "2 h, with: MLN4924 2 µM", "EC50": "0.158 µM"}
